Measured values collected from several papers.
Numbered parts are unrelated; each lists some results of a single study.

Study 1
Target: Histone acetyltransferase KAT6A, winged helix 1, GST fusion (KAT6A, Homo sapiens, UniProt Q92794, residues 1-85)
Technique: protein binding microarray
Molecule type: double-stranded DNA, one strand shown
Medium: in vitro
Concentration: not given
Notes: 8-mer, flanks averaged, mean of 2 arrays, mostly near background
Relative to: not given
Reading: higher = stronger binding
Residues (chain): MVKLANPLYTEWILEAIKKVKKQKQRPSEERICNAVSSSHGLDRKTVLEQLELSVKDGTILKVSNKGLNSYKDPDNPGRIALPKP
Oligonucleotide	E-score
TACGGTCA	0.208
AGCTCCCT	-0.197
CAAAGGTA	-0.122
GCAAGAAA	-0.0425
AAACACGA	-0.167
CAATTCAA	-0.278
TGCAACAA	-0.238
GCTACTCA	-0.0478
AGAACGTA	-0.0374
AGGCGCCC	0.203
ACATAGAG	-0.172
AAGCGTAT	0.179
GCACCACC	0.0371
GACGAGAA	-0.202
AACGATTA	-0.132
CCGCAAAA	0.161
GCTCCTCC	-0.0497
GGAACAGA	-0.113
CCGAGCAA	0.00213
GCGGGTGA	0.342
CTGAGACC	-0.0411
GGATAAAC	0.00263
AGGGAATA	-0.0541
AGCGGAAA	0.186
CACGAGCC	-0.029

Study 2
Target: RNA binding protein fox-1 homolog 2, RRM domain, GST-SBP tag (RBFOX2, Homo sapiens, UniProt O43251-10, residues 100-194)
Technique: RNA Bind-n-Seq
Molecule type: RNA
Medium: in vitro
Concentration: 365 nM
Notes: natural RNA segment, single round, ends assumed
Relative to: no-protein control
Reading: higher = stronger binding
All sequences stand within: GGGAGUUCUACAGUCCGACGAUC … UGGAAUUCUCGGGUGCCAA
Target sequence (chain): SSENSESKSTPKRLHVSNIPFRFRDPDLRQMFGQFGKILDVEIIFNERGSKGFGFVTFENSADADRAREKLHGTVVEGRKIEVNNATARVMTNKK
Oligonucleotide	RBNS enrichment (R)
UGAGGAGUUAGAAGAUGAGGUGUCUAUGAUGUUGAUGUAAUGUAUACGUAGGCGAUAUAUGUAAGUGUUCUGAUAACAUGACUCUAAUGGUGUUUAAGUGUUCUGAUAAC	0.653
CUAGAAGUUGAGUCUGAGUACAUCAGAGUUUGGCAUUAUUUGCAACAUCCCAGGAAUGAGCUAUAAGACUCCAUUGCUUUCUGGACUUUAGUGACCAGCUGAUCUUCCCU	0.213
GAAAGAGACAGAGGCAAUGAGAGAGACAGACAUGCAGGCAGGCCGACAGCUCUGCAUGUACUUGUGUUUUACGGCCUCAAGCAGAAUAAGGGACCUCCUCCUUAUUUCUG	0.495
UCCCAGCGCCUCAGGCCCCGCGUUUGUGUCUGGAGUCUCCCCCCGGGGAGAGGACACUGGCCCCUCGCACUCCAGAAAAGCCAUGCCAGCUGGGCUCGUUGACAAAGGGU	0.344
AAAGCGGUCAACUGGAAACUAAAUGGAGCAGCAGCUCCUCUCUGUGGCCAGGGCAUCAGACACAGGAGGAUCCCAGAACGGCAGCACUGAGCCCCUGCUCCCAGAUCCCU	0.256
GGCUCUGAAUCCUAUGAAUCAAGGAAAUAACCCGUUCUCUGGAAGACACUGAAACAGGAGAGAGGGACUUCCGUCCACUGGGCAGGGUACAGAUGUGUCUCAGUUGUGAA	0.586
UUACAAACUGUAAGACACAUUUUUUUGUGUGUUUGUUUUUGUUGUUGUUCUUUUGCAGCACUCACGCCUCUGACAGUCUUUUGGGAAAGAGUAACACCCACAUACAGAAU	0.469
GCAACUUCCUUAAUUCCUCCUGGUCAUAUAAUAUAUUUCCAUAGUAUCGUAUACUAUUAUGGAGUAUUUAAAAGACUCAAGUUCAAAUUAACAUGCUUCUUUUAUUCUUC	0.614
AUGAGGCAGGUGAGAGAUGUUUGAAUUUUUCUCUUCCUUUUAGUAUUCUUAGUUGUUCAGUUGCCAAGGAUCCCUGAUCCCAUUUUCCUCUGACGUCCACCUCCUACCCC	0.404
AUCUAAAAAGGUAAACUGGCAUAUCCAGGGCAAAUGUGGGCUGCCAAUGGCUCAUCUCUAGGGUAAUUUUAUGUCUGAAAGUGUAUGCAGUUGGGUCAGAGCAUGACCUU	2.85
GCCCUUGCCUUUUCUGUAACUCACCAUUUAUUGUAUUUACAAAUCUAGUAAGGGUUUUGAUCACACCAAGUUCUUUGUAUUGAGAAGUCUAGGGCAGAGCUCUGGGGGAU	0.406
UUCCGUAAAAUUGACUUUGUACUCUGAAAACGUCAAUUUAUAUUGAACUUGGAGGAGUUUGGCAAAGUCUGAAUAGGUCAACCUGCAGGCGUAACUAUUUUUGACCUAGU	0.369

Study 3
Target: Interferon regulatory factor 7, full length, phosphomimetic (IRF7, Homo sapiens, UniProt Q92985, residues 1-503, S471D/S472D/S475D/S476D/S477D/S483D/S484D/S487D)
Sequence of UniProt Q92985 (whole entry, unmodified, looked up): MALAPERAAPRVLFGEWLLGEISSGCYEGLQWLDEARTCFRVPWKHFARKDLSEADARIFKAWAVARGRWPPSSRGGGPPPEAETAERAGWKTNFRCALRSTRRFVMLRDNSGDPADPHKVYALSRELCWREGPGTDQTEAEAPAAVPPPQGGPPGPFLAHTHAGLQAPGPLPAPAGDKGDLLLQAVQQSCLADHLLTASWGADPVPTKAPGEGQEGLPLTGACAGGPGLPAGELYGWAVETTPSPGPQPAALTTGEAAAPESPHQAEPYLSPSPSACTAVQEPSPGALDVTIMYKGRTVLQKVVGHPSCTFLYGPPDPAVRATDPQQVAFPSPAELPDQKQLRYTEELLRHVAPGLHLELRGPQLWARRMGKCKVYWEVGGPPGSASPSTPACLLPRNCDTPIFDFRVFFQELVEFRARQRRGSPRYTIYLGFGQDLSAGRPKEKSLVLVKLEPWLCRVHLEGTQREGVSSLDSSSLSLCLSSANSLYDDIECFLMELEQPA
Technique: protein-binding microarray
Molecule type: double-stranded DNA, one strand shown
Medium: in vitro
Concentration: 2200 nM top
Notes: 60-bp whole probe
Added: salmon DNA 0.4 mg/ml
Relative to: random background probes
Reading: higher = stronger binding
All sequences stand within: GCCTAGCAC … GTCTTGATTCGCTTGACGCTGCTG
Oligonucleotide	fitted relative affinity [z-score]
GACGGTTTCCTTTGCCTGACGTGCTAG	2.68
TTAGGACTCGACACTGGGTTAGTGCTA	-0.243
TTAGGTCTCGGTCGCGGTTAGTGCTAG	0.273
GACGAACTGAGTCTCCAGACGTGCTAG	0.0243
GTCATTATCCTTGTCCCTCCGTGCTAG	1.79
GACGGACTGGTGACTGGGGACGTGCTA	-0.713
GACGATTTCATTTCCGAGACGTGCTAG	2.04
TGAGCATACCATATCAGAAAGTGCTAG	0.0551
CACCACATTTTTTTCATTATGTGCTAG	1.71
GACGGTTTCCTTCTCCTAACGTGCTAG	3.11
GTAGGTTTCGGGTATCGGTTAGTGCTA	6.05
GACGGTATAGGTTTCGGGACGTGCTAG	2.31
TTATGTGTAGGTCTTAAATAGTGCTAG	-0.196
GACGGTTTCGACTTTCGGGTCGTGCTA	11.6
TTAGAACTGATTATCGATTAGTGCTAG	-0.189
TTGGATATCGGGACTGGATTAGTGCTA	-0.0762
TTAGATTTCGGGTTTCGATGAGTGCTA	4.76
GACGGTCTCGGACTGGCGACGTGCTAG	-0.471
GCAGGTCTGGACCCAGACTCGTGCTAG	-0.316
GAGATTTCCATTATTGCTTCGTGCTAG	1.67

Study 4
Target: Fragile X messenger ribonucleoprotein 1, C-terminal low-complexity region (Fmr1, Mus musculus, UniProt P35922)
Technique: RNA Bind-n-Seq
Molecule type: RNA
Medium: in vitro
Concentration: 200 nM
Notes: whole 134-nt RNA, ends assumed
Added: 150 mM LiCl
Relative to: input library
Reading: higher = stronger binding
All molecules: 7-deaza-guanosine replaces G
All sequences stand within: GGGAGUUCUACAGUCCGACGAUC … UGGAAUUCUCGGGUGUCAAGG
Oligonucleotide	log2 enrichment
UGGGAGACGAUCGCGAUGAACACGGUGCUGUCGCGGGCGAACUCACUGUUCGCCUUCUCGCUGAGCGUGAUGGCGGCGCUCACCUUCGGC	-3.01
AGUCCUGUGCUACACAUCGUAUGUACCGAAUCGGGGAAAAAGGGGAGGGGAAAGGGGAAAGUAUUAUGUUACGCCGUUCGGAUCUGCACU	0.144
UGGCCCUGGUGGCAUGCGGGGAGGAAGAGGUGGCCUCAUGGAUCGUGGUGGUCCCGGUGGAAUGUUCAGAGGUGGCCGUGGUGGGGACAG	-0.486
UUUGAUGACAGUCUGCAGGAGCUGCCUGGUGAAGUACCUGGAGGAGAACAACACCUGCCCCACCUGCAGGAUUGUGAUCCACCAGAGCCA	-1.27
AAGUCCUGUGCUACACAUCGUAUGUACCGAAUCGGGGCCCGGGGCCCGGGGCCCGGAAAGUAUUAUGUUACGCCGUUCGGAUCUGCACUU	-2.26
UCACCUGUUUACAGUGAAUCAGACGUCCCAAUAGAUGUGGAGACGGUCACAUCAACGCCUAUGCCACUCUAUGACAAUCAGAAGGCACGC	-2.01
UCCUGUGCUACACAUCGUAUGUACCGAAUCGGGGAAAAAGGGGUUUUUUUGGGGUGGGGAAAGUAUUAUGUUACGCCGUUCGGAUCUGCA	-0.643
UGGCCCUGGUGGCAUGCGGGGAGGAAGAGGUGGCCUCUUGGAUCGUGGUGGUCCCGGUGGAAUGUUCAGAGGUGGCCGUGGUGGAGACAG	-0.186
UGGGAGGUGGAUUUUGUUUAUUUUUUUAGCUCAUUUCCAGGGGUGGGAAUUUUUUUUUAAUAUGUGUCAUGAAUAAAGUAGUUUUUGAAA	0.112
UGGACGAUGAAGAGGAAACAAUUGAAGAGGAGGAAGCAAAUGAAGGCGUUGUGGACCACCAAACAGAACUUUCUAAUUUAGCCAAGGAAG	0.347
GUCCUGUGCUACACAUCGUAUGUACCGAAUCGGGGUUUUUUUGGGGUGGGGUUUGGGGAAAGUAUUAUGUUACGCCGUUCGGAUCUGCAC	-0.0373

Repeated from above (study 2):
Oligonucleotide	RBNS enrichment (R)
AUGAGGCAGGUGAGAGAUGUUUGAAUUUUUCUCUUCCUUUUAGUAUUCUUAGUUGUUCAGUUGCCAAGGAUCCCUGAUCCCAUUUUCCUCUGACGUCCACCUCCUACCCC	0.404
UUACAAACUGUAAGACACAUUUUUUUGUGUGUUUGUUUUUGUUGUUGUUCUUUUGCAGCACUCACGCCUCUGACAGUCUUUUGGGAAAGAGUAACACCCACAUACAGAAU	0.469
UUCCGUAAAAUUGACUUUGUACUCUGAAAACGUCAAUUUAUAUUGAACUUGGAGGAGUUUGGCAAAGUCUGAAUAGGUCAACCUGCAGGCGUAACUAUUUUUGACCUAGU	0.369
GCCCUUGCCUUUUCUGUAACUCACCAUUUAUUGUAUUUACAAAUCUAGUAAGGGUUUUGAUCACACCAAGUUCUUUGUAUUGAGAAGUCUAGGGCAGAGCUCUGGGGGAU	0.406
AUCUAAAAAGGUAAACUGGCAUAUCCAGGGCAAAUGUGGGCUGCCAAUGGCUCAUCUCUAGGGUAAUUUUAUGUCUGAAAGUGUAUGCAGUUGGGUCAGAGCAUGACCUU	2.85
GAAAGAGACAGAGGCAAUGAGAGAGACAGACAUGCAGGCAGGCCGACAGCUCUGCAUGUACUUGUGUUUUACGGCCUCAAGCAGAAUAAGGGACCUCCUCCUUAUUUCUG	0.495
GCAACUUCCUUAAUUCCUCCUGGUCAUAUAAUAUAUUUCCAUAGUAUCGUAUACUAUUAUGGAGUAUUUAAAAGACUCAAGUUCAAAUUAACAUGCUUCUUUUAUUCUUC	0.614
UCCCAGCGCCUCAGGCCCCGCGUUUGUGUCUGGAGUCUCCCCCCGGGGAGAGGACACUGGCCCCUCGCACUCCAGAAAAGCCAUGCCAGCUGGGCUCGUUGACAAAGGGU	0.344
